{"data": "Assay results gathered from unrelated publications", "DPP9": "Dipeptidyl peptidase 9 (DPP9, Homo sapiens, UniProt Q86TI2)", "note": "Each line is one published result; not all experiments were run side by side. Values joined by “and” are separate records of one study, mostly repeats; a detail may differ.", "sequence of UniProt Q86TI2 (whole entry, looked up)": "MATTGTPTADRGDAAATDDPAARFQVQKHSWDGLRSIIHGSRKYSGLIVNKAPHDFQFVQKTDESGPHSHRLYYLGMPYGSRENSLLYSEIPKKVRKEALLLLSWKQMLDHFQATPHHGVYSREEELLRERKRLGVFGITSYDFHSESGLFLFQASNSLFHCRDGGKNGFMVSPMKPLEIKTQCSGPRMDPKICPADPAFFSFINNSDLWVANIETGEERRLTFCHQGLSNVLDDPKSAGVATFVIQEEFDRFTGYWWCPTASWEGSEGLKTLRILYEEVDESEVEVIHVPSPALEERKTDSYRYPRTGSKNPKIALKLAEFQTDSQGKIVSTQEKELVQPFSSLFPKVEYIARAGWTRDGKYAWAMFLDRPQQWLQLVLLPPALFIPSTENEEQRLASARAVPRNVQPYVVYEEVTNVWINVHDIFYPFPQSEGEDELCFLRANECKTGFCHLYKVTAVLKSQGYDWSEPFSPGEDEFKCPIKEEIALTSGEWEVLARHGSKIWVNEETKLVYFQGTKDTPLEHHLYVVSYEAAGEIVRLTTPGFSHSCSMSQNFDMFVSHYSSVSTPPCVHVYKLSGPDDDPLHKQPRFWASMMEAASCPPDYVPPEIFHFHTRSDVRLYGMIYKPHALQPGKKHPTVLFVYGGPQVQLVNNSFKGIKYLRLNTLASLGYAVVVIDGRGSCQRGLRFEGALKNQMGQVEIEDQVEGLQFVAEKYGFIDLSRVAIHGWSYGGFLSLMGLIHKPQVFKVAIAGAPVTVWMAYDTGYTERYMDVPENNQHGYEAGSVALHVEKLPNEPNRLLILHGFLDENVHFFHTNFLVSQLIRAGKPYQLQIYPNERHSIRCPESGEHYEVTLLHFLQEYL", "sequence of UniProt P61073 (whole entry, looked up)": "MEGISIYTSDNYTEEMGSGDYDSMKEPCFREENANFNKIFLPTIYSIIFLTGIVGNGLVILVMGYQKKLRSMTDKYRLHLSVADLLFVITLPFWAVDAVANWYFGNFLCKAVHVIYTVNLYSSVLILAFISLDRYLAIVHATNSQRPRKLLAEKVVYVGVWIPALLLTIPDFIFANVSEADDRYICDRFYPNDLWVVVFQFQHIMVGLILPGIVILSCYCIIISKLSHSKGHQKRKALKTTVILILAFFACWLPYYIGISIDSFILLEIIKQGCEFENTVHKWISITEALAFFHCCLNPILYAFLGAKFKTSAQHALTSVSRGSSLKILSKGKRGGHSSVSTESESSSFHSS", "sequence of UniProt Q02763 (whole entry, looked up)": "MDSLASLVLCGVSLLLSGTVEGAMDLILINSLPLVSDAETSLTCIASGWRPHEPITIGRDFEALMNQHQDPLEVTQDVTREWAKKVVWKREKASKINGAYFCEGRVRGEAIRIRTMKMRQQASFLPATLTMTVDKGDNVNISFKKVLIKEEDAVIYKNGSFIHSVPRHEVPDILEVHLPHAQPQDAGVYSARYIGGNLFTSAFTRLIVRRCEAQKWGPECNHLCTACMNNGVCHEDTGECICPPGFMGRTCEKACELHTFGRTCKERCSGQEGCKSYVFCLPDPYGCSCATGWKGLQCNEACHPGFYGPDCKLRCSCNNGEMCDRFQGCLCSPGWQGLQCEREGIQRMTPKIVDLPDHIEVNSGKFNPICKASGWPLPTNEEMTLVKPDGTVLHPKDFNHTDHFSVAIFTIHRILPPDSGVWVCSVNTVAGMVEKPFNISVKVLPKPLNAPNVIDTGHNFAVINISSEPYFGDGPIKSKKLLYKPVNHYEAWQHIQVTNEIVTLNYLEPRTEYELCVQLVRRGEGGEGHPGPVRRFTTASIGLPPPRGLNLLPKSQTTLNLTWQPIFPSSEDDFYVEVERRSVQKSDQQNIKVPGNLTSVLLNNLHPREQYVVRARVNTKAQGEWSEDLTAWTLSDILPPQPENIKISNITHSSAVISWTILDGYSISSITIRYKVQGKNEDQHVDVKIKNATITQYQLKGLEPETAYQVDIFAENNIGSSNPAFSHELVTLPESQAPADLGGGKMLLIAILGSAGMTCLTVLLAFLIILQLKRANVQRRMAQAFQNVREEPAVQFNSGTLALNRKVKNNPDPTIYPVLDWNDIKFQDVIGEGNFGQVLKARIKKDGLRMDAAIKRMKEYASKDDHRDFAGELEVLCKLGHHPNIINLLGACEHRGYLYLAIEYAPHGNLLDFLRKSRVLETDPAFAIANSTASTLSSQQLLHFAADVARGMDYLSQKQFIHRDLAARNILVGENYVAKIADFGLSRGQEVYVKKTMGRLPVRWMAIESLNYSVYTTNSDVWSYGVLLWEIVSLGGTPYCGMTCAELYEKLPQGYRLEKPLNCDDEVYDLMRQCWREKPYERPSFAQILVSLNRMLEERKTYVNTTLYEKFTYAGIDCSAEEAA", "sequence of UniProt Q9HB29 (whole entry, looked up)": "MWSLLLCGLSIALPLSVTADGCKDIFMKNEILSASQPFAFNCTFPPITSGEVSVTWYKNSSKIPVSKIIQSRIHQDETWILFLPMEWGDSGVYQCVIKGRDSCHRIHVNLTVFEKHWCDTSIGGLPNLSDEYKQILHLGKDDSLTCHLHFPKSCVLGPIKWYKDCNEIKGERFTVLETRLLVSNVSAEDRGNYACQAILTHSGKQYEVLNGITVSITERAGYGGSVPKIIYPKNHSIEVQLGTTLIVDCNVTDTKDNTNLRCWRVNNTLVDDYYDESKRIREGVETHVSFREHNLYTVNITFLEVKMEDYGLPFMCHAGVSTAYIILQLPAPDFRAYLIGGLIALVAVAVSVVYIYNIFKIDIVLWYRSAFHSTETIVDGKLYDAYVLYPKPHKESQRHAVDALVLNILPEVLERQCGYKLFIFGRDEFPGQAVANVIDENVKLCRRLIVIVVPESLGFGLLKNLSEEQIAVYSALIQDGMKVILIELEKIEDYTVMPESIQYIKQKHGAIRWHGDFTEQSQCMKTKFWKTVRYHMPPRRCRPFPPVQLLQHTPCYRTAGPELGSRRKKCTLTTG", "sequence of UniProt Q16539 (whole entry, looked up)": "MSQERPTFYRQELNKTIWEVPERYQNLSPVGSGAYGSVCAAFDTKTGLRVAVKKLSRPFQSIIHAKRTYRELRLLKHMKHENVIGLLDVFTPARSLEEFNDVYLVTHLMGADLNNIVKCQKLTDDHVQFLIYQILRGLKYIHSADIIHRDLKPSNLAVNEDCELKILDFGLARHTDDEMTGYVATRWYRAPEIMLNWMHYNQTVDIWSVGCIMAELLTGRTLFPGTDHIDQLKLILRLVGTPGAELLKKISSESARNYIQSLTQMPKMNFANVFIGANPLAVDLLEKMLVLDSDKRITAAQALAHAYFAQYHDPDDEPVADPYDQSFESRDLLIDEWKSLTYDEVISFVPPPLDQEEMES", "sequence of UniProt P14778 (whole entry, looked up)": "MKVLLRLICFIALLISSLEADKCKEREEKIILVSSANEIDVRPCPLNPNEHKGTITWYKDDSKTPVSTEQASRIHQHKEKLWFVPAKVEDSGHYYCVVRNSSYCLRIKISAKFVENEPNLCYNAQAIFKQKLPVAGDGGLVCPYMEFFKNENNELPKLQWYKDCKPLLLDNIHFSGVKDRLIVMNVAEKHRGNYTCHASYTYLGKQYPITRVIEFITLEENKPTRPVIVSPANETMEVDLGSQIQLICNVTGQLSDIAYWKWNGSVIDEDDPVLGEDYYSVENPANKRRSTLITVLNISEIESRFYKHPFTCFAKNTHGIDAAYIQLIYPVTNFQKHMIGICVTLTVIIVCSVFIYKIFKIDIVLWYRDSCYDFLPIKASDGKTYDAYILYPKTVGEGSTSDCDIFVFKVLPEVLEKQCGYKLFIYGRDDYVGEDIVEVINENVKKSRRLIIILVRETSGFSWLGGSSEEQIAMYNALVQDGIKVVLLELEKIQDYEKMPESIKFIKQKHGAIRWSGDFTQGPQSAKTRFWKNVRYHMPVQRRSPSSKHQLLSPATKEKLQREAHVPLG"}
{"Structure (SMILES)": "CCC1(CC)C(=O)N(c2cccc(CN3CCN(C)CC3)c2)C1=O", "target": "DPP9", "assay": "enzyme activity, inhibitor", "setting": "5 µM", "remaining activity": "90%"}
{"Structure (SMILES)": "C[C@@H]1c2nnn(-c3ncc(F)cn3)c2CCN1C(=O)c1cccc(C(F)(F)F)c1Cl", "target": "P2X purinoceptor 7 (Ailuropoda melanoleuca, UniProt G1M6C4)", "assay": "ATP-evoked current, whole-cell patch clamp", "system": "HEK293 (transfected)", "setting": "0.0003 µM", "scale": "relative to: no compound", "remaining activity": "91.6%"}
{"Structure (SMILES)": "CCC1(CC)C(=O)N(c2cccc(CN3CCN(Cc4ccc(Br)cc4)CC3)c2)C1=O", "target": "DPP9", "assay": "enzyme activity, inhibitor", "setting": "5 µM", "remaining activity": "61%"}
{"Structure (SMILES)": "CN(Cc1cc(C2CC2)on1)C(=O)c1cccc(-c2ccc3c(c2)CCO3)c1", "target": "Acetyl-CoA synthetase (Cryptococcus neoformans, UniProt J9VFT1)", "assay": "enzyme activity, inhibitor, coupled pyrophosphate", "setting": "15.6 µM", "remaining activity": "39.1% and 28.4%"}
{"Structure (SMILES)": "COc1ccccc1-c1ccncc1C(=O)Nc1nnc(OCc2ccc(Cl)cc2)s1", "target": "RecQ-like DNA helicase BLM, residues 636–1298 (BLM, Homo sapiens, UniProt P54132)", "assay": "ATPase activity, ADP-Glo", "setting": "0.06 µM, 1 h", "remaining activity": "94%"}
{"Structure (SMILES)": "N#Cc1cnc2sc(C(=O)O)cc2c1N1CCc2[nH]nc(C(=O)N[C@@H](CC(=O)NCCOCCN3CCOCC3)c3cccc(Br)c3)c2C1", "target": "Interleukin-1 receptor type 1 (IL1R1, Homo sapiens, UniProt P14778)", "assay": "IL-8 release, antagonist", "system": "A-431", "setting": "160 µM, 18 h, together with: IL-1β 5 ng/mL", "scale": "relative to: untreated", "remaining activity": "85.3%"}
{"Structure (SMILES)": "COc1ccc(NC(=O)Nc2ccc3c(c2)C(=O)N(C(C)CO)CC(C)C(CN(C)Cc2ccc4c(c2)OCO4)O3)cc1 (centres unmarked)", "target": "Angiopoietin-1 receptor (TEK, Homo sapiens, UniProt Q02763)", "assay": "kinase activity", "setting": "0.03 µM", "scale": "relative to: control", "remaining activity": "104%"}
{"Structure (SMILES)": "CO[C@@H]1[C@@H](OC(=O)c2ccc(C)[nH]2)[C@@H](O)[C@H](Oc2ccc3c(O)c(NC(=O)c4c[nH]c(C(=O)Nc5c(O)c6ccc(O[C@@H]7OC(C)(C)[C@H](OC)[C@@H](OC(=O)c8ccc(C)[nH]8)[C@H]7O)c(C)c6oc5=O)c4C)c(=O)oc3c2C)OC1(C)C", "target": "human CMG helicase", "assay": "helicase activity", "setting": "125 µM, together with: ATP 2 mM", "remaining activity": "2%"}
{"Structure (SMILES)": "CCC1(CC)C(=O)N(c2cccc(CN3CCc4cc5c(cc4C3)OCO5)c2)C1=O", "target": "DPP9", "assay": "enzyme activity, inhibitor", "setting": "5 µM", "remaining activity": "31%"}
{"Structure (SMILES)": "CCS(=O)(=O)c1ncc(N(Cc2ccco2)Cc2ccco2)c(C(=O)Nc2ccccc2C)n1", "target": "C-X-C chemokine receptor type 4 (CXCR4, Homo sapiens, UniProt P61073)", "assay": "arrestin recruitment, antagonist, DiscoverX arrestin", "setting": "30 µM", "scale": "relative to: untreated", "remaining activity": "-0.89% and -0.69%"}
{"Structure (SMILES)": "COC(=O)[C@@]1(C)C=C(C(=O)Nc2cccc(C(=O)Nc3ccc(Nc4nccc(-c5cccnc5)n4)c(C)c3)c2)C(=O)CC1", "target": "Mitogen-activated protein kinase 14 (MAPK14, Homo sapiens, UniProt Q16539)", "assay": "kinase activity, inhibitor", "setting": "1.646 µM, unit not given", "scale": "relative to: no inhibitor", "remaining activity": 1.01}
{"Structure (SMILES)": "C=CC(=O)N1CCCC(n2c(=O)c3ncccc3n(Cc3ccc(Oc4ccccc4)cc3)c2=O)C1 (centres unmarked)", "target": "Receptor-type tyrosine-protein kinase FLT3 (FLT3, Homo sapiens, UniProt P36888, D835V)", "assay": "kinase activity", "setting": "1 µM", "remaining activity": "82%"}
{"Structure (SMILES)": "CC(C)[C@@H]1NC(=O)[C@H](Cc2ccccc2)NC(=O)CSC[C@@H](C(N)=O)NC(=O)[C@H](CCC(=O)O)NC(=O)[C@H](CO)NC(=O)[C@H](Cc2c[nH]c3cccc(Cl)c23)NC(=O)[C@H](C2CCCCC2)NC(=O)[C@H](C(C)C)NC(=O)[C@H](Cc2ccc(O)cc2)NC(=O)[C@H](CC(=O)O)NC(=O)[C@H](Cc2c[nH]c3ccccc23)NC(=O)[C@H](Cc2ccc(N)nc2)NC(=O)[C@H](Cc2c[nH]c3ccc(Cl)cc23)NC(=O)[C@H](CCC(=O)O)NC1=O", "target": "Interleukin-1 receptor-like 2 (IL1RL2, Homo sapiens, UniProt Q9HB29)", "assay": "reporter gene (SEAP), inhibitor, HEK-Blue IL-36R reporter", "system": "HEK-Blue IL-36R cells", "setting": "0.0017 µM, 6 h, together with: IL-36γ 0.3 ng/mL", "remaining activity": "105%"}
{"Structure (SMILES)": "O=C=[N][Ru-4]123([n]4c5ccc(O)cc5c5c6c(c7cc(F)c[n+]1c7c54)C(=O)NC6=O)[S+]1CC[S+]2CC[S+]3CC1 (centres unmarked)", "target": "Rho-associated protein kinase 2 (Rock2, Rattus norvegicus, UniProt Q62868)", "assay": "enzyme activity", "setting": "100 nM, rat enzyme, together with: 10 µM ATP", "scale": "relative to: untreated", "remaining activity": "107%"}
